Experimental data pooled from the literature.
Each line is one published result; not all experiments were run side by side.
CA9: Carbonic anhydrase 9 (CA9, Homo sapiens, UniProt Q16790)
Sequence of UniProt P16234 (whole entry, looked up): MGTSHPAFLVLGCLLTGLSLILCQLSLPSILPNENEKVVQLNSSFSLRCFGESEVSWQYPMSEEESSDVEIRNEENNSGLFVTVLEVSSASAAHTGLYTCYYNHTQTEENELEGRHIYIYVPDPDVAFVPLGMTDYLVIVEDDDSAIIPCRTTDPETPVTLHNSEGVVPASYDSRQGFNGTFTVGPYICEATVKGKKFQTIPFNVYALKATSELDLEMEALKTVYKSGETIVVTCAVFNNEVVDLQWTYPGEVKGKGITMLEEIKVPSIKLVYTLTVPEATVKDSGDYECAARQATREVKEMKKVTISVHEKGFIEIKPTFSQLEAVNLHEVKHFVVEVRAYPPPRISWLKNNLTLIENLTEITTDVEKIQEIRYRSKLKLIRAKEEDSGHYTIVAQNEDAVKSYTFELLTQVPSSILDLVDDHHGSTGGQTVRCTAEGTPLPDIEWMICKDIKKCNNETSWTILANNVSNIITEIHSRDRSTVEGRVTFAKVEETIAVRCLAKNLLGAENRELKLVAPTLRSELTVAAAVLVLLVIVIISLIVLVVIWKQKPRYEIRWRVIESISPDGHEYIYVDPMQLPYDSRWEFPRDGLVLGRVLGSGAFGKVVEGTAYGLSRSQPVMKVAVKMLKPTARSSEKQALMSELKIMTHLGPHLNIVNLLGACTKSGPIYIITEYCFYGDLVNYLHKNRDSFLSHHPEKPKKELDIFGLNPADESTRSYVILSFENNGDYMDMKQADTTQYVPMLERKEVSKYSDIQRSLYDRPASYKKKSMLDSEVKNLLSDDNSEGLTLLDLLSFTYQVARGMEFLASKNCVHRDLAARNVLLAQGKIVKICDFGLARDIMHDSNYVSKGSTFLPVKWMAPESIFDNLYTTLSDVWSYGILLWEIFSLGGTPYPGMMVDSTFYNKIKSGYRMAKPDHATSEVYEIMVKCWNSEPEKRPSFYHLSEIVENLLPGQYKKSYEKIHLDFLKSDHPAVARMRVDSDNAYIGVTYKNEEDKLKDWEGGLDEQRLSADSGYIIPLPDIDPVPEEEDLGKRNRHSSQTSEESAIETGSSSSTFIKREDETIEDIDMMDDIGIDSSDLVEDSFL

COc1cc(-c2nc3ccccc3c(=O)n2Nc2ccc([N+](=O)[O-])cc2[N+](=O)[O-])ccc1OCc1cn(CC(=O)Nc2ccc([N+](=O)[O-])cc2C)nn1 — inhibition (DPPH scavenging, absorbance; 100 µM): 23.1%
CC(=NNC(=O)c1ccccc1Br)c1ccc(Nc2nnc(-c3ccc(Cl)cc3)c3ccccc23)cc1 — viability (HepG2; cell growth or viability, MTT; 5 µM, 24 h): 4.4%
Cc1cc(NS(=O)(=O)c2ccc(N=NN(C)O)cc2)no1 — inhibition (DPPH scavenging, absorbance; 120 µg/mL): 34.7%
O=C(O)c1ccc(O)cc1 — inhibition (Helicobacter pylori; microbial growth, broth dilution; 15.63 µg/mL): 100%
COc1cc(-c2nc3ccccc3c(=O)n2Nc2ccc([N+](=O)[O-])cc2[N+](=O)[O-])ccc1OCc1cn(CC(=O)Nc2ccccc2F)nn1 — inhibition (DPPH scavenging, absorbance; 100 µM): 28.2%
CCN(O)N=Nc1ccc(S(=O)(=O)Nc2nccs2)cc1 — inhibition (DPPH scavenging, absorbance; 300 µg/mL): 30.8%
CCCCn1cnc2ccc(-c3ccc(NC(=O)c4ccccc4)nc3)cc2c1=O — IC50 (NCI-H1975; cell growth or viability, CCK-8; 72 h): 2.44 µM
COc1ccnc(SCC(=O)c2ccccc2)c1C#N — EC50 (Trypanosoma brucei; parasite growth, resazurin; RHODESIENSE): 42.1 µM
Fc1cccc(Nc2nccc(NC3CCCCC3)n2)c1 — EC50 (BJ; cell growth or viability, ATP luminescence; 72 h): > 20 µM
Cc1cc([C@@H](C)Nc2ccccc2C(=O)O)c2nc(N3CCC(F)(F)CC3)c(C#N)c(=O)n2c1 — remaining binding (ERBB2 (Homo sapiens, UniProt P04626); binding, competition with immobilised ligand; 10 µM): 100%
COc1cccc(C(=O)C[S+]([O-])c2nc(C)cc(C)c2C#N)c1 (stereo not shown) — EC50 (Leishmania infantum; parasite growth; mouse Macrophage; intracellular, amastigote): 24.9 µM
CC[C@H]1OC(=O)[C@H](C)[C@@H](O[C@H]2C[C@@](C)(OC)[C@@H](O)[C@H](C)O2)[C@H](C)[C@@H](O[C@@H]2O[C@H](C)C[C@H](N(C)C)[C@H]2O)[C@](C)(OC)C[C@@H](C)C(=O)[C@H](C)[C@@H](O)[C@]1(C)O — inhibition (Helicobacter pylori; microbial growth, broth dilution; 7.81 µg/mL): 100%
Cc1noc(NS(=O)(=O)c2ccc(N=NN(O)c3ccccc3)cc2)c1C — inhibition (DPPH scavenging, absorbance; 120 µg/mL): 12.2%
O=C1O[C@H]([C@@H](O)CO)C(O)=C1O — inhibition (DPPH scavenging; 125 µg/mL): 60.5%
CCCCn1cnc2ccc(-c3ccc(NC(=O)NCCc4ccccc4)nc3)cc2c1=O — IC50 (NCI-H1975; cell growth or viability, CCK-8; 72 h): 3.69 µM
CN(Cc1ccc(C2(C(F)(F)F)CC2)cc1)Cc1cccc2ccccc12 — inhibition zone (Trichophyton mentagrophytes; microbial growth, disc diffusion; ATCC18748; 0.002 µg/mL, 72 h): 17 mm
CC(=O)Nc1ccc(NC(=O)c2ccc(Cl)c(S(N)(=O)=O)c2)cc1 — IC50 (CA9; enzyme activity, inhibitor): 0.871 µM
COc1cc(-c2nc3ccccc3c(=O)n2Nc2ccc([N+](=O)[O-])cc2[N+](=O)[O-])ccc1OCc1cn(CC(=O)Nc2ccc([N+](=O)[O-])cc2Cl)nn1 — inhibition (DPPH scavenging, absorbance; 100 µM): 12.5%
CCCn1cnc2ccc(-c3ccc(NC(=O)CNC(C)C)nc3)cc2c1=O — IC50 (NCI-H1975; cell growth or viability, CCK-8; 72 h): > 10 µM
COc1cc(-c2cc(=O)c3c(O)cc(O)cc3o2)ccc1O — inhibition (Helicobacter pylori; microbial growth, broth dilution; 7.81 µg/mL): 100%
C=CC(=O)N1CCC(COCC(=O)N2CCN(c3nc(-c4cnc(N)nc4C(F)F)nc(N4CCOC[C@@H]4C)n3)CC2)CC1 — remaining binding (FLT3 (Homo sapiens, UniProt P36888, K663Q); binding, competition with immobilised ligand; 1 µM): 61%
CC(=O)Nc1ccc(Oc2nnc(-c3ccc(Cl)cc3)c3ccccc23)cc1 — cell death (HepG2; cell growth or viability, MTT; 10 µM): 93.2%
COc1ccc(-c2cc(=O)c3c(O)cc(O[C@@H]4O[C@H](CO)[C@@H](O)[C@H](O)[C@H]4O)cc3o2)cc1O — inhibition (Helicobacter pylori; microbial growth, broth dilution; 0.48 µg/mL): 73.9%
COc1cc(-c2cncc3c2CN(C)Cc2cc(N4CCNCC4)ccc2-3)cc(OC)c1OC — remaining activity (SRC (Homo sapiens, UniProt P12931, T341M); enzyme activity, inhibitor; 1 µM): 96%
Cc1cc(C)c(C#N)c(SCC(=O)c2cccc(N)c2)n1 — EC50 (Leishmania infantum; parasite growth; mouse Macrophage; intracellular, amastigote): > 64 µM
CCCCCC(=O)Nc1ccc(-c2ccc3ncn(CC4CC4)c(=O)c3c2)cn1 — IC50 (NCI-H1975; cell growth or viability, CCK-8; 72 h): 1.68 µM
NS(=O)(=O)c1ccc(S(=O)(=O)N2CCN(C(=O)c3ccc(-n4cnc5ccccc54)cc3)CC2)cc1 — IC50 (CA9; enzyme activity, inhibitor): 0.442 µM
CNc1ncc2c(/C=C/C(=O)N3CCC(OC)CC3)nn(Cc3cccc(C(F)(F)F)c3)c2n1 — remaining activity (PDGFRA (Homo sapiens, UniProt P16234); enzyme activity, inhibitor, radiometric; 1 µM): 92%
COc1cc([C@H]2OC[C@H]3[C@@H]2CO[C@@H]3c2cc(OC)c(O)c(OC)c2)cc(OC)c1O — inhibition (Helicobacter pylori; microbial growth, broth dilution; 0.48 µg/mL): 79.3%
Cc1cc(C)c(C#N)c(SCC(=O)c2ccc(F)cc2F)n1 — EC50 (Trypanosoma brucei; parasite growth, resazurin; RHODESIENSE): 54.3 µM
CCN(O)N=Nc1ccc(S(=O)(=O)Nc2onc(C)c2C)cc1 — inhibition (DPPH scavenging, absorbance; 300 µg/mL): 28.1%
CC(=NNC(=O)c1ccccc1)c1ccc(Nc2nnc(-c3ccc(Cl)cc3)c3ccccc23)cc1 — cell death (HepG2; cell growth or viability, MTT; 1.25 µM): 86.6%
Cc1cc(NS(=O)(=O)c2ccc(N=NN(O)c3ccccc3)cc2)no1 — inhibition (DPPH scavenging, absorbance; 180 µg/mL): 32.1%
COc1ccccc1C(=O)CSc1nc(C)cc(C)c1C#N — EC50 (Trypanosoma brucei; parasite growth, resazurin): > 64 µM
COC(=O)c1ccc(O)cc1 — inhibition (Helicobacter pylori; microbial growth, broth dilution; 0.98 µg/mL): 69.8%
O=C(Nc1ccc(Oc2nnc(-c3ccc(Cl)cc3)c3ccccc23)cc1)c1ccccc1 — cell death (MCF7; cell growth or viability, MTT; 1.25 µM): 95.3%
C=C[C@@]1(C)C=C2CC[C@@H]3[C@](C)(CCC[C@@]3(C)C(=O)O)[C@H]2CC1 — inhibition (Helicobacter pylori; microbial growth, broth dilution; 3.9 µg/mL): 62.5%
CC(=NNC(=O)c1ccncc1)c1ccc(Nc2nnc(-c3ccc(Cl)cc3)c3ccccc23)cc1 — viability (HepG2; cell growth or viability, MTT; 0.625 µM, 24 h): 7.84%
Cc1cc(C)c(C#N)c(SC2COc3ccccc3C2=O)n1 (stereo not shown) — EC50 (Trypanosoma brucei; parasite growth, resazurin; RHODESIENSE): > 64 µM
CCCN(O)N=Nc1ccc(S(=O)(=O)Nc2onc(C)c2C)cc1 — inhibition (DPPH scavenging, absorbance; 120 µg/mL): 11.1%
CC(=NNC(=O)c1ccccc1O)c1ccc(Nc2nnc(-c3ccc(Cl)cc3)c3ccccc23)cc1 — viability (HepG2; cell growth or viability, MTT; 10 µM, 24 h): 4.73%
Cc1ccc(N(O)N=Nc2ccc(S(=O)(=O)Nc3cc(C)on3)cc2)cc1 — inhibition (DPPH scavenging, absorbance; 180 µg/mL): 27.9%
CC(=NNC(N)=S)c1ccc(Nc2nnc(-c3ccc(Cl)cc3)c3ccccc23)cc1 — viability (HepG2; cell growth or viability, MTT; 0.156 µM, 24 h): 46.5%

A few entries again:
CC[C@H]1OC(=O)[C@H](C)[C@@H](O[C@H]2C[C@@](C)(OC)[C@@H](O)[C@H](C)O2)[C@H](C)[C@@H](O[C@@H]2O[C@H](C)C[C@H](N(C)C)[C@H]2O)[C@](C)(OC)C[C@@H](C)C(=O)[C@H](C)[C@@H](O)[C@]1(C)O — inhibition (Helicobacter pylori; microbial growth, broth dilution; 7.81 µg/mL): 100%
O=C(O)c1ccc(O)cc1 — inhibition (Helicobacter pylori; microbial growth, broth dilution; 15.63 µg/mL): 100%
COc1ccnc(SCC(=O)c2ccccc2)c1C#N — EC50 (Trypanosoma brucei; parasite growth, resazurin; RHODESIENSE): 42.1 µM
COc1cc(-c2nc3ccccc3c(=O)n2Nc2ccc([N+](=O)[O-])cc2[N+](=O)[O-])ccc1OCc1cn(CC(=O)Nc2ccc([N+](=O)[O-])cc2C)nn1 — inhibition (DPPH scavenging, absorbance; 100 µM): 23.1%
